Measurements of several laboratories.
A part holds a random share of what one study measured.
Sequence of UniProt P34969 (whole entry, looked up): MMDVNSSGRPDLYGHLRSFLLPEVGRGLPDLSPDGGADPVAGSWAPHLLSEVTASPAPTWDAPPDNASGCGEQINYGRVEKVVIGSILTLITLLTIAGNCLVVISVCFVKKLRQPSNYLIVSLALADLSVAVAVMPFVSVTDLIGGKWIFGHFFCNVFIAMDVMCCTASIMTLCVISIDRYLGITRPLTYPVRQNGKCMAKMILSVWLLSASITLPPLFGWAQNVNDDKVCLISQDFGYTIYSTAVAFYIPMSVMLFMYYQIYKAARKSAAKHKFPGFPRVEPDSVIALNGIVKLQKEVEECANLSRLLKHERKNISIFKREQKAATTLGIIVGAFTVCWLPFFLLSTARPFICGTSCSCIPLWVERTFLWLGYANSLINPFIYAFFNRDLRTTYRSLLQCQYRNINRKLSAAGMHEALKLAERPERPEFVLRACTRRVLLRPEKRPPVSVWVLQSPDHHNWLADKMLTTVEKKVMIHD

Study 1 — organism: Sarcocystis neurona; effect on: parasite growth; concentration: 10 µM; time: 96 h; quantity: inhibition
Compound = CCN(CC)CC1CCCCN1CC(=O)N1c2ccccc2C(=O)Nc2cccnc21 (centres unmarked); result = -11.6%
Compound = COc1ccccc1N1CCN(CC(O)COc2cccc3ccccc23)CC1 (centres unmarked); result = -12.2%
Compound = c1ccc2c(CC3=NCCN3)cccc2c1; result = -5.4%

Study 2 — host: mouse; matrix: microsomes or S9; concentration: 2 µM; time: 0.5 h; quantity: remaining compound
Structure (SMILES) = CCn1c(=O)c(C(=O)N2CCOCC2)nn(-c2ccc(S(C)(=O)=O)cc2)c1=O; result = 71.5%
Structure (SMILES) = CCCOc1ccc2c(c1)CNC(CCCCN)C(=O)N2CCc1ccc(OC)cc1 (centres unmarked); result = 88.8%
Structure (SMILES) = O=c1[nH]c2c(c(=O)n1-c1cccc(F)c1)[S+]([O-])CC2 (centres unmarked); result = 81.1%

Study 3 — mode: antagonist; quantity: IC50
Target: Beta-1 adrenergic receptor (ADRB1, Homo sapiens, UniProt P08588)
Sequence of UniProt P08588 (whole entry, looked up): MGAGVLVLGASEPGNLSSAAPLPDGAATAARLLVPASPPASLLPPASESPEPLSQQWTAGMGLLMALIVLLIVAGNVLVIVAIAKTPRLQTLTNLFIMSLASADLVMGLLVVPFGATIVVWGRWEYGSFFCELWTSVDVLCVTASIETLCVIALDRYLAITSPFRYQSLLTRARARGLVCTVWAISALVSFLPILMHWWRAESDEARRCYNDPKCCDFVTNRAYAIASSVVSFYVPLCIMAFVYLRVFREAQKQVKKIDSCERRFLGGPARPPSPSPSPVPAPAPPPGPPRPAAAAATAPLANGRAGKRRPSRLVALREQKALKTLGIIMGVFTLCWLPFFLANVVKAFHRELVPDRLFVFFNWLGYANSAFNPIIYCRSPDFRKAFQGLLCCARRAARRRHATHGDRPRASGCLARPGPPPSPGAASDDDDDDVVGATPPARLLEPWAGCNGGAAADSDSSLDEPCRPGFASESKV
Compound = Cc1ccc2c(Cn3nnc(-c4cccc(Cl)c4)n3)cc(=O)oc2c1; result = ≥ 100 µM
Compound = CCOc1cc(N2CC=C(c3c[nH]c4ccc(OC)cc34)CC2)ncn1; result = ≥ 100 µM
Compound = CCCC1C=CCN1C(=O)c1cc(-c2ccncc2)nc2ccccc12 (centres unmarked); result = ≥ 100 µM
Compound = N#CC(c1nc2ccccc2s1)c1cnn(-c2ccccc2)c(=O)c1Cl (centres unmarked); result = ≥ 100 µM

Single results of other studies
SMILES = CO[C@@H](C)c1c(Nc2ccc([C@@H](N(C)C(=O)C3CCS(=O)(=O)CC3)C(F)(F)F)cc2)cnc2cc(Cl)nn12; target = 5-hydroxytryptamine receptor 7 (HTR7, Homo sapiens, UniProt P34969); test = binding, radioligand binding; quantity = Ki; result = > 10 µM

For quick reference, copied from above (study 3):
Compound = N#CC(c1nc2ccccc2s1)c1cnn(-c2ccccc2)c(=O)c1Cl (centres unmarked); result = ≥ 100 µM
